Published values of several laboratories.
Numbered parts are unrelated; each lists some results of a single study. Changes are numbered by the printed parent chain.

Set 1
Molecule: PhoQ, residues 284 288 289 292 302 303 SIHMAM
Technique: Sort-seq
Item: YFP reporter
Medium: E. coli
Setting: PhoQ-PhoP variant library
With: 10 µM Mg2+
Reference: high Mg2+ state
Reading: higher = stronger signaling
PhoP, residues 12 14 15 18 19 QQAYL (Escherichia coli, UniProt P23836) — fold induction: 11.2.
The fold induction was 1.79 (PhoP, residues 12 14 15 18 19 LFHKL (Escherichia coli, UniProt P23836)).
PhoP, residues 12 14 15 18 19 GMGLL (Escherichia coli, UniProt P23836) — fold induction: 2.3.

Set 2
Target: Sal-like protein 4, full length isoform A (SALL4, Homo sapiens, UniProt Q9UJQ4, residues 1-1053)
Sequence of UniProt Q9UJQ4 (whole entry, looked up): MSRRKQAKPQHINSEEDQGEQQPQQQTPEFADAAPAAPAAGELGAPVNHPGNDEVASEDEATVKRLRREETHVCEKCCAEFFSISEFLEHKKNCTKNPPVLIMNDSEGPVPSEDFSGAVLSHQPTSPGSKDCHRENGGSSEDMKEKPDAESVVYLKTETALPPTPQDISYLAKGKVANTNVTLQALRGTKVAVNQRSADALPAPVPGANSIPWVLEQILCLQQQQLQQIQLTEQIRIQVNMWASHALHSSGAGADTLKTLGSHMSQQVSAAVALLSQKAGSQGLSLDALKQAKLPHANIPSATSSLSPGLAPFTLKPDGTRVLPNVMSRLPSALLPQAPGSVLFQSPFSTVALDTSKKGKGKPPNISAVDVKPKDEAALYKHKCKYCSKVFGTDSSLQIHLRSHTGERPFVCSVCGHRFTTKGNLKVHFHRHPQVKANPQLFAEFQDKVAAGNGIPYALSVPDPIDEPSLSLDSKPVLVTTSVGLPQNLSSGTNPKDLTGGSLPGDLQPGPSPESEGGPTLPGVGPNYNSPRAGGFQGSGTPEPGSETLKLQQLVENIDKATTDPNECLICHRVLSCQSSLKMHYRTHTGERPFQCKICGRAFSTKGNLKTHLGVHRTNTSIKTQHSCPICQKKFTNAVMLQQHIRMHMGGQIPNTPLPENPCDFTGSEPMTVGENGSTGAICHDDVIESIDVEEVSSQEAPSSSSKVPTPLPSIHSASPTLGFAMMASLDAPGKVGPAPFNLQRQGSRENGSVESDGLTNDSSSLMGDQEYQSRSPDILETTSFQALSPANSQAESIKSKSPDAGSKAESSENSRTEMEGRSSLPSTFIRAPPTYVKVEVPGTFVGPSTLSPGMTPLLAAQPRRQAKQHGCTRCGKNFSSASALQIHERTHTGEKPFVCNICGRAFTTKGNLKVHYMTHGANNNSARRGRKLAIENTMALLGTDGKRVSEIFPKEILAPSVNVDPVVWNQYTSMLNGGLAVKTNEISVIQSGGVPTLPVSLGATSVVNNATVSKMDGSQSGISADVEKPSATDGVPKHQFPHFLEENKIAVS
Technique: universal PBM
Molecule type: double-stranded DNA, one strand shown
Medium: in vitro
Tested at: 600 nM
Setting: 8-mer, flanks averaged, mean of replicates
Reading: higher = stronger binding
With `AATGAGGG` the E-score was -0.0719.
For `CATAGGTC`, the E-score was 0.036.
`ACAATCAA` gave an E-score of 0.123.
`AGTCGTGG` gave an E-score of -0.104.
With `CAGTTATC` the E-score was 0.145.
`ATCCGAAT` gave an E-score of 0.138.
`ACGTCATG` gave an E-score of 0.0617.
With `CAACGCAA` the E-score was 0.101.
The E-score of `CGGGGAAC` is reported as -0.225.
`GGCCCCTA` gave an E-score of -0.334.
The E-score of `GGTAATTA` is reported as 0.246.
With `ACGTCGCT` the E-score was -0.224.
`CCAGAGCG` gave an E-score of -0.336.
`GGTAGTAA` gave an E-score of 0.0727.
With `AATGGCCA` the E-score was -0.149.
`CACAGATG` gave an E-score of 0.0446.
For `ATCCCATG`, the E-score was -0.0938.

Set 3
Target: Interferon regulatory factor 5, full length, phosphomimetic (IRF5, Homo sapiens, UniProt Q13568-2, residues 1-514, K96S/S451D/S453D/S456D/S462D)
Technique: protein-binding microarray
Molecule type: double-stranded DNA, one strand shown
Medium: in vitro
Tested at: 250 nM
Setting: 60-bp whole probe
With: salmon DNA 0.4 mg/ml
Reference: random background probes
Reading: higher = stronger binding
Shared flanks, not repeated: GCCTAGCAC … GTCTTGATTCGCTTGACGCTGCTG
With `TCATGCCTATTTTTCCCACTGTGCTAG` the log fluorescence was 0.371 z-score.
With `TTAGGACTGGGGATTGGGTTAGTGCTA` the log fluorescence was -0.185 z-score.
For `GACGAACTGAGCCTCGAGACGTGCTAG`, the log fluorescence was -0.301 z-score.
`GTGAATATATGTATATATGTGTGCTAG` gave a log fluorescence of 0.272 z-score.
For `TTTGCTTTCTTTTTGCACTCGTGCTAG`, the log fluorescence was 3.13 z-score.
`GACGAACTGGGGTTACGAGACGTGCTA` has a log fluorescence of -0.499 z-score.
`ATAGTGATAGCTCTGGTAAAGTGCTAG` has a log fluorescence of 0.073 z-score.
`TCAAATATGAGACTGGGACTGTGCTAG` gave a log fluorescence of -0.176 z-score.
With `TCAGCTTTCCTGATGACACTGTGCTAG` the log fluorescence was -0.0875 z-score.
`TACGAACTGAGTTTCGAGACGTGCTAG` gave a log fluorescence of 4.7 z-score.
With `TTAGGTATCGACACTGGGCTAGTGCTA` the log fluorescence was 2.17 z-score.
`TTAGATCTCAGACTGGATAAGTGCTAG` has a log fluorescence of -0.233 z-score.
For `CTTCCCCTCTCTTTCCAACTGTGCTAG`, the log fluorescence was 0.3 z-score.
`GACGTACTGGACTTTCGGGACGTGCTA` gave a log fluorescence of 4.05 z-score.
`TTAGGACCGGGACTGGGTTAGTGCTAG` gave a log fluorescence of -0.271 z-score.
The log fluorescence of `TTAGAATTGGGGTTTCGATTAGTGCTA` is reported as 5.86 z-score.
`TTAGGTTTCCTTTCTCTTTAGTGCTAG` has a log fluorescence of 3 z-score.

Set 4
Target: CCNB1, cyclin fold, Cln2 fusion (human)
Technique: yeast growth competition, sequencing
Medium: yeast
Setting: weak parent motif
Reference: not given
Reading: higher = stronger binding
Starting sequence: E2F2 docking peptide (human); LPAKRKLDLEGIG
For `LPAARKLDLEGIG [K4A]`, “normalised enrichment score” read 0.977.
`LPAKRKLDAEGIG [L9A]` — result for “normalised enrichment score”: 0.183.
For `LPAKAKLDLEGIG [R5A]`, “normalised enrichment score” read 0.741.
`LAAKRKLDLEGIG [P2A]` — result for “normalised enrichment score”: -0.268.
`LPAKKKLDFEGIG [R5K L9F]` — result for “normalised enrichment score”: 0.402.
`APAKRKLDLEGIG [L1A]` — result for “normalised enrichment score”: 0.526.
Under “normalised enrichment score”, `LPAKAKADLEGIG [R5A L7A]` is recorded as 0.141.
`LPAKRKLDFEGIG [L9F]`: “normalised enrichment score” 2.14.
Under “normalised enrichment score”, `LPAKRKLDLEAIG [G11A]` is recorded as -0.271.

Set 5
Target: JUND, bZIP domain (human)
Technique: DHFR protein complementation
Medium: yeast
Setting: single substitutions, most at no-binding floor
Reference: wild-type JUN-FOS pair
Reading: higher = stronger binding
Starting sequence: JUN, bZIP domain (human); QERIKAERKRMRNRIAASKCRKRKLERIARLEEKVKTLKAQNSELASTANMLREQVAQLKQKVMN
The binding fitness of `E33V` is reported as -1.21 natural log.
`L45Y` gave a binding fitness of -1.33 natural log.
With `E54W` the binding fitness was -1.3 natural log.
`L38W` has a binding fitness of -1.42 natural log.
`N42F` has a binding fitness of -1.4 natural log.
`L45D` has a binding fitness of -1.43 natural log.
With `L52V` the binding fitness was -1.43 natural log.
With `I28G` the binding fitness was -1.28 natural log.
For `L52E`, the binding fitness was -1.5 natural log.
For `A40P`, the binding fitness was -1.42 natural log.
The binding fitness of `L59W` is reported as -1.27 natural log.
`L45H` gave a binding fitness of -1.38 natural log.
The binding fitness of `L38Q` is reported as -1.51 natural log.
`L52S` has a binding fitness of -1.46 natural log.

Set 6
Target: ABI1, truncated, D143A, DHFR fusion (Arabidopsis thaliana)
Technique: DHFR PCA, deep sequencing
Medium: yeast
Setting: methotrexate growth selection, single substitutions
With: (+)-ABA 2500 µM
Reference: wild-type fitted maximum
Reading: higher = stronger binding
Starting sequence: PYL1, truncated, DHFR fusion (Arabidopsis thaliana); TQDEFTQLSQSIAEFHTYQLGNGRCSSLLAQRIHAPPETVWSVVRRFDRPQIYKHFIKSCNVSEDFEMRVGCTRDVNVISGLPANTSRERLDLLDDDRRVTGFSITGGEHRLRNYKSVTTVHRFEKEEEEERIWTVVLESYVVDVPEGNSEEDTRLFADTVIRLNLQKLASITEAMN
Under “relative binding score”, `S63P` is recorded as 98.7%.
For `V118C`, “relative binding score” read 97.4%.
Under “relative binding score”, `T120R` is recorded as 28.4%.
`L156D` — result for “relative binding score”: 94.5%.
Under “relative binding score”, `L20F` is recorded as 91.6%.
Under “relative binding score”, `A84P` is recorded as 27.8%.
For `L91M`, “relative binding score” read 95.5%.
`P36S` — result for “relative binding score”: 102%.
Under “relative binding score”, `M68N` is recorded as 93.6%.
`D159G` — result for “relative binding score”: 91.1%.
For `H55R`, “relative binding score” read 95.2%.

Set 7
Target: RING finger protein unkempt homolog, zinc fingers 1-6, GST-SBP tag (UNK, Homo sapiens, UniProt Q9C0B0, residues 30-357)
Technique: RNA Bind-n-Seq
Molecule type: RNA
Medium: in vitro
Tested at: not given
Setting: RNA with constant flanks, ends assumed
Reference: input RNA pool
Reading: higher = stronger binding
Shared flanks, not repeated: GGGAGUUCUACAGUCCGACGAUC … CAACAGAGGAUUGAGCAUCA
Construct (chain): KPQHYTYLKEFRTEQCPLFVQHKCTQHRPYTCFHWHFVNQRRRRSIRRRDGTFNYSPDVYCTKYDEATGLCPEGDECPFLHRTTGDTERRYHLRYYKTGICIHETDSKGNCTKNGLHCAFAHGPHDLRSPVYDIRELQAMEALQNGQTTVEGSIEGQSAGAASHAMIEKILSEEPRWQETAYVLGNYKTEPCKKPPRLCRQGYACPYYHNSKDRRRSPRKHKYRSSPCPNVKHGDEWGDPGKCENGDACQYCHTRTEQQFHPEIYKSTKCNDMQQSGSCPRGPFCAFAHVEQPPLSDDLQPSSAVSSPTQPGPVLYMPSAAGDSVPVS
`UACUGUACCUCCACCCUGCGCCACUUCUUGCCUCUACUGGAAAGAAGUCAAGGAGAAGAUACCGAAGACGACCACAGGGCAGAGCUGUUGAAGCAGCUGGGGGACUACAGGUUCUCUGGA` has a bound/input enrichment of 0.0917 ratio.
With `ACGAGCAGGCCCGGACCUCGAGACCUAAAGCUGGGGAUCCCAAGUCCGUUCUACAGCCCGAGAUCACUAUGUGGCCAUGGAAUCCUCGGGCGAUCCCUGUGGACGCCACCUCACUCCGGG` the bound/input enrichment was 0.0483 ratio.
`UUUGCUUUUCAUCUUUUAUAGAUGUAAUCUGAUUUUCAAAAAUCAUUAACACUUUUUAAUCCGUAUCGACUAAGACUUUUUCCCCCUGGAAUCGAGGCUGUGUGUCCGUCAUCCCAGCCC` gave a bound/input enrichment of 0.576 ratio.
For `AUUAAUGCUCUAAUGCAUGCUUUGAUUGAAUUACGGACAAAGGACCCCAACAUAAAAAGUUCCGUUGUUUCUCAGUUUACCACAUUCUUGUCUUUAAUAGAAACACCUCUUAAAGCCUCA`, the bound/input enrichment was 0.171 ratio.
For `ACUGCCUUUACCCUGCUGUAUAAUAAACAACCAGACACUUGGCAACUGUUGAUACAGAUGGCCGUCCCGAAUCACUUUUUAUAUGUUUUAACAUUUGAAAUUCAAGUGUACCUGCCAUAA`, the bound/input enrichment was 0.19 ratio.
`GAGUACAUCAAACUCAACCAGCAAAAAACAGCAGAAGAAGAAAAUCCAGAACAUGCCGAAAUUCAGAAGAUGAUGGAUUCCCUCUUCUUAAAAUUGGAUGCCCUCUCAAACUUCCACUUU` gave a bound/input enrichment of 0.18 ratio.
For `UAUUAUUUAUCUGUAUUUUUGGAACUAUCGGCUGGCUUGCCUGAAACUUCCAAGUAUGAAUAUCGUGCCGAAAUGGUUCACCAGUCGUGCAAUGAUCCUACAAAAAAUAUCAUUCGAGAA`, the bound/input enrichment was 0.192 ratio.
With `AUCAAGGGUGAAAUCCCAUUCUGCUAGCAAAAUGCAGUAUUCACACCACUGUGAGCACCUUUCCGAGAGACUGAAUAAGCAACGGGAAGCGGGAUUUCUUUGCGACUGUACCGUAGUGAU` the bound/input enrichment was 0.229 ratio.
`CUGCUUCCAAACACUGACAGGGAUCAAGUUUGUGGUCCUGGCAGACCCUAGGCAAGCUGGAACCGAUUCUCUUCUCCGAAAAAUUUAUGAAAUUUACUCAGACUUUGCCCUCAAGAAUCC` gave a bound/input enrichment of 0.296 ratio.
The bound/input enrichment of `AAAAUACUACAAGCAGGCUUCAAGAGGAUGGGCGUUGACAAAAUAAUUCCUGUGGAUAAAUCCGUAAAAGGAAAAUUUCAGGACAAUUUUGAAUUUGUUCAAUGGUUCAAGAAGUUUUUU` is reported as 0.0968 ratio.
`AAGUACUUAGCCCAGCUGCUGAACAGUGUACGGUUACCAUUGCUGAGCGUUAAGUUCCUCACCCGGCUCUAUGAAGCGAAUCAUCUUAUCCGUGAUGAUCGCACCUGUAAACAUCUCUUG` has a bound/input enrichment of 0.0994 ratio.
